Measured values of several laboratories.
A part holds a random share of what one study measured.

Set 1
Target: Sal-like protein 4, full length isoform A (SALL4, Homo sapiens, UniProt Q9UJQ4, residues 1-1053)
UniProt Q9UJQ4, sequence (whole entry, looked up): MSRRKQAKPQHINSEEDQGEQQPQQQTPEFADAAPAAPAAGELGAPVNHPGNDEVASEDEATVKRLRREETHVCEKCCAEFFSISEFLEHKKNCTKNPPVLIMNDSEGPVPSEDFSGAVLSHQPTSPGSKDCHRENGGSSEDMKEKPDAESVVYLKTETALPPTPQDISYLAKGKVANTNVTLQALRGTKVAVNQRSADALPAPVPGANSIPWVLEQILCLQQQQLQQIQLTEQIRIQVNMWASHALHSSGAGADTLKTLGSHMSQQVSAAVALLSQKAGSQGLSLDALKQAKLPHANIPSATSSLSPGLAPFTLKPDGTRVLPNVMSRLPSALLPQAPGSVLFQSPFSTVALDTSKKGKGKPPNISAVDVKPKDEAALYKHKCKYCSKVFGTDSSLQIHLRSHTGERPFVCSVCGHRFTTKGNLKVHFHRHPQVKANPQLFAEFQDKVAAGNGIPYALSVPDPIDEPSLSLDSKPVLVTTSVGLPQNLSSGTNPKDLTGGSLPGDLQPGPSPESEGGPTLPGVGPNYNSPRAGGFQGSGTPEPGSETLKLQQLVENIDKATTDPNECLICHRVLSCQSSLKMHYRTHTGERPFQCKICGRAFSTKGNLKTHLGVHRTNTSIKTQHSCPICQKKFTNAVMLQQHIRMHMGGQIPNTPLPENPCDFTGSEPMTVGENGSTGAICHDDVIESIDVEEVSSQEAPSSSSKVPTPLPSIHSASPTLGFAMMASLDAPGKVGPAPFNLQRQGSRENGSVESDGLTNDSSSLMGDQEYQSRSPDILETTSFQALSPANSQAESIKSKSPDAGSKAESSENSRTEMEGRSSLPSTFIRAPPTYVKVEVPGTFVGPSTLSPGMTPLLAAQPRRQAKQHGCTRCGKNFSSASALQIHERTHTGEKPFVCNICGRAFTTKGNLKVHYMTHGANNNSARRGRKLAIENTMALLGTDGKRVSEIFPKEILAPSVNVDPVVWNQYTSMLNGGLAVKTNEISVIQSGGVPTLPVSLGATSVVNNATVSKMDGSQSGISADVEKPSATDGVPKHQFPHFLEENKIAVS
Method: universal PBM
Molecule type: double-stranded DNA, one strand shown
Sample: in vitro
Concentration: 600 nM
Setting: 8-mer, flanks averaged, mean of replicates
Reading: higher = stronger binding
| Sequence | E-score |
| --- | --- |
| GCTGCGCA | -0.236 |
| GCATGCCC | -0.213 |
| TAGCAAAA | 0.258 |

Set 2
Target: Ras GTPase-activating protein-binding protein 1, full length (G3BP1, Homo sapiens, UniProt Q13283)
UniProt Q13283, sequence (whole entry, looked up): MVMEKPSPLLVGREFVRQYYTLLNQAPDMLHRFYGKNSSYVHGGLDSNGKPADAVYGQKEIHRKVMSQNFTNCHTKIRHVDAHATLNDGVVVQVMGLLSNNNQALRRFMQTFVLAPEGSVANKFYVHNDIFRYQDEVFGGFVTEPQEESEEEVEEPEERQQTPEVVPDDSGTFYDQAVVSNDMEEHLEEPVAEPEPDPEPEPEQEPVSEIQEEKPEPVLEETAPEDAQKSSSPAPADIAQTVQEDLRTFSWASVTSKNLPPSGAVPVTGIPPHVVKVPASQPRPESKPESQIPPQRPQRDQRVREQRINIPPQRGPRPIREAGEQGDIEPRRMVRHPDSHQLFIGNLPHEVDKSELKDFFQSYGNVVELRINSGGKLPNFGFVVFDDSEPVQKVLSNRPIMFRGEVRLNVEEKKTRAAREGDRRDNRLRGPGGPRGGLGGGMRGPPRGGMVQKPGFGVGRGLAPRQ
Method: RNA Bind-n-Seq
Molecule type: RNA
Sample: in vitro
Concentration: 200 nM
Setting: whole 134-nt RNA, ends assumed
With: 150 mM LiCl
Relative to: input library
Reading: higher = stronger binding
Each molecule: 7-deaza-guanosine replaces G
| Sequence | log2 enrichment |
| --- | --- |
| GGGAGUUCUACAGUCCGACGAUCCUCAAGUCCUGUGCUACACAUCGUAUGUACCGAAUCGGGAAGGGAAGGAAGGGAAAGUAUUAUGUUACGCCGUUCGGAUCUGCACUUCCAUGGAAUUCUCGGGUGUCAAGG | -0.219 |
| GGGAGUUCUACAGUCCGACGAUCAGUCCUGUGCUACACAUCGUAUGUACCGAAUCGGAAAAAGGGAAAAAGGGAAAAAGGGAAAGUAUUAUGUUACGCCGUUCGGAUCUGCACUGGAAUUCUCGGGUGUCAAGG | -0.596 |
| GGGAGUUCUACAGUCCGACGAUCACCAUGCAGGUGGGCAUCUUUGGGAAGUGGGGCAAGGGGGGGAUAGGGAGGGGGGUAACACUUUGGGAACAGGUGGUCCCAUGUCGUUUCUGGAAUUCUCGGGUGUCAAGG | 0.539 |

Set 3
Target: Centromere-binding protein 1, full length, His-tagged (CBF1, Saccharomyces cerevisiae, UniProt P17106, residues 1-351)
UniProt P17106, sequence (whole entry, looked up): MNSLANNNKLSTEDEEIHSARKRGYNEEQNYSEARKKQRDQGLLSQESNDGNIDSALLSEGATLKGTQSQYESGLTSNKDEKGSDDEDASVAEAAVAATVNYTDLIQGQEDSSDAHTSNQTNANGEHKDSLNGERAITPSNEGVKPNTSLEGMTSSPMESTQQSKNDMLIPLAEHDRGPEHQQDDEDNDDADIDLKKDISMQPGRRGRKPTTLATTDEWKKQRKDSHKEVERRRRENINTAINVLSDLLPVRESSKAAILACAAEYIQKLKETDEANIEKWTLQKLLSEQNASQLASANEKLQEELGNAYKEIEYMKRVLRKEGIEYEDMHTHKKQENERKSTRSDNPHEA
Method: competition protein-binding microarray
Molecule type: double-stranded DNA, one strand shown
Sample: in vitro
Concentration: 2 µM
Setting: whole 60-bp probe, lowest competitor level
With: Pho4 competitor, 0.05 µM
Reading: higher = stronger binding
| Sequence | fluorescence intensity [a.u.] |
| --- | --- |
| AAAGCGGTAATTTGCTAAGTGGGTGCAGATATCTATGTCTTGATTCGCTTGACGCTGCTG | 64.8 |
| AGTGCTCCGTTAAAGCCTGTGACAGTAGCAACGACAGTCTTGATTCGCTTGACGCTGCTG | 77.5 |
| TGTTTACAGCCGAGTCACGGGATATTGGTCTGTGAAGTCTTGATTCGCTTGACGCTGCTG | 1060 |
| AAATTACTAAGTTGTCACATCACTTACCCCGTATGAGTCTTGATTCGCTTGACGCTGCTG | 83.6 |

Further values, each from its own experiment
| Molecule | target | test | system | conditions | how to read | endpoint | value |
| --- | --- | --- | --- | --- | --- | --- | --- |
| PhoQ, residues 284 288 289 292 302 303 TNASYF | PhoP, residues 12 14 15 18 19 AQALL (Escherichia coli, UniProt P23836) | Sort-seq, measured: YFP reporter | E. coli | PhoQ-PhoP variant library, with: 10 µM Mg2+ | relative to: high Mg2+ state, higher = stronger signaling | fold induction | 12.2 |

A few entries again (set 2):
| Sequence | log2 enrichment |
| --- | --- |
| GGGAGUUCUACAGUCCGACGAUCCUCAAGUCCUGUGCUACACAUCGUAUGUACCGAAUCGGGAAGGGAAGGAAGGGAAAGUAUUAUGUUACGCCGUUCGGAUCUGCACUUCCAUGGAAUUCUCGGGUGUCAAGG | -0.219 |
